Results collected from several papers.
Lines come from different studies, so protocols differ. ± gives the spread as reported.
Target: Prothrombin (F2, Homo sapiens, UniProt P00734)
Mode: inhibitor

For `Cc1ccc(C(=O)Nc2ccc(CP(=O)(O)O)cc2CP(=O)(O)O)cc1NC(=O)c1cccc(NC(=O)Nc2cccc(C(=O)Nc3cc(C(=O)Nc4ccc(CP(=O)(O)O)cc4CP(=O)(O)O)ccc3C)c2)c1`, the IC50 was > 500 µM (enzyme activity, absorbance).
`CC[C@H](C)[C@H](NC(=O)[C@@H]1CSSC[C@H](NC(=O)[C@H](Cc2ccc(O)cc2)NC(=O)CN)C(=O)N[C@@H](CO)C(=O)N[C@@H](CCCNC(=N)N)C(=O)N[C@@H](CO)C(=O)N[C@@H](Cc2ccc(O)cc2)C(=O)N2CCC[C@H]2C(=O)N2CCC[C@H]2C(=O)N[C@@H](C(C)C)C(=O)N1)C(=O)N1CCC[C@H]1C(=O)N[C@@H](CC(=O)O)C(=O)O` has a Ki of 384 µM (enzyme activity).
`CC(C)CCC[C@@H](C)[C@H]1CC[C@H]2[C@@H]3CC=C4C[C@@H](OS(=O)(=O)O)CC[C@]4(C)[C@H]3CC[C@]12C` gave an IC50 of 176 ± 17.5 µM (fibrinogen clotting, turbidity; pH 7.4).
For `O=C1C[C@@H](c2ccc(O)cc2)Oc2cc(O[C@@H]3O[C@H](CO)[C@@H](O)[C@H](O)[C@H]3O)ccc21`, the IC50 was > 100 µM (enzyme activity, fluorescence; with preincubation).
With `O=C(Nc1ccc(C(=O)Nc2ccc(C(=O)Nc3ccc(S(=O)(=O)O)c4cc(S(=O)(=O)O)cc(S(=O)(=O)O)c34)cc2)cc1)Nc1ccc(C(=O)Nc2ccc(C(=O)Nc3ccc(S(=O)(=O)O)c4cc(S(=O)(=O)O)cc(S(=O)(=O)O)c34)cc2)cc1` the IC50 was > 100 µM (enzyme activity, absorbance).
With `N=C(N)NCCC[C@@H]1NC(=O)C[C@@H]2CCCN2C(=O)CN(Cc2ccccc2CO)Cc2ccccc2CSC[C@@H](C(N)=O)NC1=O` the Ki was 0.042 µM (enzyme activity, fluorescence).
`C=CC(C)(C)c1cc(/C=C/C(=O)c2ccc(O)cc2)c(OC)cc1O` gave a Ki of 12.2 µM (enzyme activity).
`CN(C(=O)c1ccn2ncc(-c3ccc(C(N)=O)cc3)c2c1)c1ccc(C#N)cn1` has an IC50 of > 30 µM (enzyme activity).
For `COc1c(/C=C/C(=O)c2ccc(O)cc2)ccc(O)c1O`, the IC50 was 36.9 µM (enzyme activity, fluorescence; with preincubation).
`Cc1cc(-c2ccc(/N=N/c3ccc4c(S(=O)(=O)O)cc(S(=O)(=O)O)c(N)c4c3O)c(C)c2)ccc1/N=N/c1ccc2c(S(=O)(=O)O)cc(S(=O)(=O)O)c(N)c2c1O` gave an IC50 of ~8 µM (enzyme activity, absorbance).

Repeated from above:
For `COc1c(/C=C/C(=O)c2ccc(O)cc2)ccc(O)c1O`, the IC50 was 36.9 µM (enzyme activity, fluorescence; with preincubation).
